Measured values from different studies.
Parts stem from different laboratories: compare values within a part only. Positions count from the first letter of the parent shown.

Sample 1
Target: Sal-like protein 4, full length isoform B (SALL4, Homo sapiens, UniProt Q9UJQ4-2, residues 1-616)
Method: universal PBM
Form: double-stranded DNA, one strand shown
Medium: in vitro
Tested at: not given
Setting: 8-mer, flanks averaged, mean of replicates
Reading: higher = stronger binding
`TAGGCTCA` has an E-score of -0.0534.
For `AAACCAGC`, the E-score was -0.0647.
The E-score of `AGGGTGCG` is reported as -0.202.
For `CCCGCTTA`, the E-score was -0.174.
`GGTATGCA` has an E-score of -0.0202.
With `AAGCAGTC` the E-score was -0.147.

Sample 2
Target: PABPC1L2, full length, GST fusion (mouse, UniProt A0ABA7IW68)
Method: RNAcompete
Form: RNA
Medium: in vitro
Tested at: 20 nM
Setting: 7-mer, probes averaged, single round
Baseline: mean of 7-mers
Reading: higher = stronger binding
Residues (chain): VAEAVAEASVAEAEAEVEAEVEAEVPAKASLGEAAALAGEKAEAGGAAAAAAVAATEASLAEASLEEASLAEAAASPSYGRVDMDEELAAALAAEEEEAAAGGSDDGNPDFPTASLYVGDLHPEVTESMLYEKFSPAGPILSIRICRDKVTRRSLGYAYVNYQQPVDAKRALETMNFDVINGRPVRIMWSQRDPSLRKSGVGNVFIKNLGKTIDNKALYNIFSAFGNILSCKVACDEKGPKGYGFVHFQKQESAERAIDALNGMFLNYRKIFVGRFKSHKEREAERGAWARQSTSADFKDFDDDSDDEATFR
For `ACCCCGG`, the 7-mer Z-score was -0.315.
With `CGAGUGC` the 7-mer Z-score was -0.168.
`UCUGUUC` gave a 7-mer Z-score of -0.364.
For `ACUACAC`, the 7-mer Z-score was -0.0953.
The 7-mer Z-score of `GACAGUG` is reported as -0.135.
With `CAGAUUC` the 7-mer Z-score was -0.273.
For `GCCGUCG`, the 7-mer Z-score was -0.503.

Sample 3
Target: CCNB3, cyclin fold, Cln2 fusion (human)
Method: yeast growth competition, sequencing
Medium: yeast
Setting: weak parent motif
Baseline: not given
Reading: higher = stronger binding
Starting sequence: SLBP docking peptide (human); ARYKRKLLINDFG
`ARYKSKLLINDFG [R5S]` — result for “normalised enrichment score”: 0.885.
`ARYVRKLLINDFG [K4V]` — result for “normalised enrichment score”: 0.281.
Under “normalised enrichment score”, `ARYKRKLLINDAG [F12A]` is recorded as 0.202.
`ARYKRKLLINDFD [G13D]`: “normalised enrichment score” -0.172.

Further values, each from its own experiment
`PhoQ, residues 284 288 289 292 302 303 NLSRDF` has a fold induction of 2.31 (PhoP, residues 12 14 15 18 19 HLGGL (Escherichia coli, UniProt P23836); Sort-seq, refers to: YFP reporter; E. coli; PhoQ-PhoP variant library, with: 10 µM Mg2+; baseline: high Mg2+ state, higher = stronger signaling).

For quick reference, copied from above (sample 2):
The 7-mer Z-score of `GACAGUG` is reported as -0.135.
With `CAGAUUC` the 7-mer Z-score was -0.273.
